Measured values pooled from the literature.
A part holds a random share of what one study measured. Substitutions count along the parent as printed.

Block 1
Target: CEBPD, bZIP domain (human)
Method: DHFR protein complementation
Sample: yeast
Setting: single substitutions, most at no-binding floor
Reference: wild-type JUN-FOS pair
Direction: higher = stronger binding
Starting sequence: JUN, bZIP domain (human); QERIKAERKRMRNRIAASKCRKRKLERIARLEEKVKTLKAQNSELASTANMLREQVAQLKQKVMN; partner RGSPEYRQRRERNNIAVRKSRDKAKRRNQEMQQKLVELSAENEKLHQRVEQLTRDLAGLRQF
The binding fitness of `E32Y` is reported as -1.35 natural log.
`S43N` has a binding fitness of -1.24 natural log.
`L52M` has a binding fitness of -1.45 natural log.
With `L31N` the binding fitness was -1.52 natural log.
With `E54I` the binding fitness was -1.39 natural log.
For `K39W`, the binding fitness was -1.49 natural log.
For `V56C`, the binding fitness was -1.39 natural log.
The binding fitness of `R53Q` is reported as -1.19 natural log.
For `L52V`, the binding fitness was -1.39 natural log.
The binding fitness of `E54W` is reported as -1.4 natural log.
The binding fitness of `N42D` is reported as -1.49 natural log.
`S43P` gave a binding fitness of -1.46 natural log.
`E33V` gave a binding fitness of -1.47 natural log.
For `A46Q`, the binding fitness was -1.42 natural log.
`L52N` gave a binding fitness of -1.36 natural log.
`T37H` gave a binding fitness of -1.35 natural log.
For `R30G`, the binding fitness was -1.26 natural log.
With `R53M` the binding fitness was -1.32 natural log.
`A46Y` gave a binding fitness of -1.48 natural log.
With `R30C` the binding fitness was -1.37 natural log.
`E54R` has a binding fitness of -1.34 natural log.
`A46T` has a binding fitness of -1.3 natural log.
The binding fitness of `L52P` is reported as -1.48 natural log.

Block 2
Target: ABI1, truncated, D143A, DHFR fusion (Arabidopsis thaliana)
Method: DHFR PCA, deep sequencing
Sample: yeast
Setting: methotrexate growth selection, single substitutions
Added: (+)-ABA 0.39 µM
Reference: wild-type fitted maximum
Direction: higher = stronger binding
Starting sequence: PYL1, truncated, DHFR fusion (Arabidopsis thaliana); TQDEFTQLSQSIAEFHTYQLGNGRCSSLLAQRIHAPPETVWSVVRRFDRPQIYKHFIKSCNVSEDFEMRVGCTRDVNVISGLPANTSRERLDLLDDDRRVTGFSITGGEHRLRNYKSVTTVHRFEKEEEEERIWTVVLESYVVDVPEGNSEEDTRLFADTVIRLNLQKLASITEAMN; partner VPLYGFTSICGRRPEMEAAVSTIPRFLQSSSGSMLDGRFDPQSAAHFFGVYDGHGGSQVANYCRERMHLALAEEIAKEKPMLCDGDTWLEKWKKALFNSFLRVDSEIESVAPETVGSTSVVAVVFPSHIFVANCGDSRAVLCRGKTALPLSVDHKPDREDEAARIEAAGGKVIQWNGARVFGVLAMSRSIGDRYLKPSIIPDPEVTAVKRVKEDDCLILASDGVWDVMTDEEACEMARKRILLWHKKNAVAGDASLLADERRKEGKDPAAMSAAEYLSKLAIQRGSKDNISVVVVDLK
`I57D`: “relative binding score” -14.2%.
`A13Q` — result for “relative binding score”: 50.1%.
For `A84G`, “relative binding score” read 51.9%.
For `R46V`, “relative binding score” read -14.3%.
Under “relative binding score”, `T1H` is recorded as 42.4%.
For `S117P`, “relative binding score” read 12.8%.
`T1R`: “relative binding score” 42.2%.
`L169N`: “relative binding score” 15.5%.
`E147R` — result for “relative binding score”: 7.65%.
`H122D` — result for “relative binding score”: -2.43%.
`S80K` — result for “relative binding score”: -7.74%.
`D153G` — result for “relative binding score”: 0.261%.
`N85L`: “relative binding score” 67.7%.
`S80W` — result for “relative binding score”: 58.4%.
`P146W`: “relative binding score” -1.34%.
Under “relative binding score”, `L169W` is recorded as 5.04%.
Under “relative binding score”, `A170G` is recorded as 2.45%.
`E125I`: “relative binding score” 46.5%.
`Q19T`: “relative binding score” 47.4%.
`V70K` — result for “relative binding score”: 1.92%.

Block 3
Target: RING finger protein unkempt homolog, zinc fingers 1-6, GST-SBP tag (UNK, Homo sapiens, UniProt Q9C0B0, residues 30-357)
Method: RNA Bind-n-Seq
Molecule type: RNA
Sample: in vitro
Tested at: not given
Setting: RNA with constant flanks, ends assumed
Reference: input RNA pool
Direction: higher = stronger binding
Residues (chain): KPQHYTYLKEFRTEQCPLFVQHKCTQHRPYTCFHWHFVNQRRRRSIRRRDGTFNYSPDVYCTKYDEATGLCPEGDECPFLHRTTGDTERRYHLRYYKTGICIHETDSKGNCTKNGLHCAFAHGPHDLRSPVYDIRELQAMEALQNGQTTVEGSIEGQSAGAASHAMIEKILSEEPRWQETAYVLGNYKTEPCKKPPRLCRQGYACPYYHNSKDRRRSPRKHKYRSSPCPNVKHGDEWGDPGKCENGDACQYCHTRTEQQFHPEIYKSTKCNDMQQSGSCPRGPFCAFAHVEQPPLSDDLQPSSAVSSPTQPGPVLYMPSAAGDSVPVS
`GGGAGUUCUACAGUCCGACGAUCGAAGACGGCGACUGUACAUUAUCUCACUUAGAGAAUAUGAAAAUCAUUUUGUUUUGAAGCCCGGUAUUAAACUGGAGUAGCUAUUACGUUCUUGAAAACUGGGGCAGGUGUGCCCUUGACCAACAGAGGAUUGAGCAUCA` gave a bound/input enrichment of 21 ratio.
`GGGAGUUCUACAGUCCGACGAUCGCAGUAGCCAGAGGAUGUGCAUUACAGUGUGCAAUACUUUCCCCGGCAUUUAAAGUCCGAGAAUUUUCCGUCACAGAUGCAGUUCCUUUUCCAAUAUCUCUGAUCUGGAACCAUGAUUCACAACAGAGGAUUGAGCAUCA` has a bound/input enrichment of 0.082 ratio.
For `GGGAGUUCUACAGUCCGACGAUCACUUUUCCAUGCAGAGUUGUGCACAUGGGAGAGGGUAUCCGGUUUGUCCAGUGAUUGUUCUUCCGAGAGUUGGACCACUAUAUUGUGUGUUUGCUAAUCAUUGACUGUAGUCCCAAAAAACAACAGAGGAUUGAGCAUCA`, the bound/input enrichment was 0.287 ratio.
The bound/input enrichment of `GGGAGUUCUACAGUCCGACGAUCGAACAGCUCACGAGAGGGUCCGUCGUAACCUGUUGAGUAACUAUGGAAGACUAUAUCAAAACCGAGAAAAUUGGAGAAGGUACUUACGGUGUGGUGUAUAAGGGUAGACACAGAGUCACUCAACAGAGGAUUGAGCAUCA` is reported as 0.23 ratio.
With `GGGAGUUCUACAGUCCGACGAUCUCUUACACGAUCCAGUCUGAGCUGGGAGACUAUGACCCAGAACUGCACGGCAUGGAUUAUGUCCGUGAUUUUAAACUGGCUCCAAAUCAGACCAAGGAACUUGAAGAAAAGGUCAUGGAACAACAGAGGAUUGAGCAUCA` the bound/input enrichment was 0.166 ratio.
The bound/input enrichment of `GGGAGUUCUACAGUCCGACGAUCAGUAUGAUUAAUACAACAGGUGCCGUGGAUUCAGGGUCCUCCUCCUCUUCCUCCUCUUCCCGUUUUGUGAAUGGUGCUACUAGCAAAAACCUUCCAGCUGUACAAACUGUUGCUCCAAUGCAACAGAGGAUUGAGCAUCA` is reported as 0.423 ratio.
`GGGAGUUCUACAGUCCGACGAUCGAUGGCCUUACUAAGUUUUUUACACCAUCACCUGAUGGUCGCAGAUCACGAGGUGAAAUUACCGACUUUUCAAAGCACUAUCGUCCAAGGAAAAAGGUCUCUCAGAAACAGUCAUGCACUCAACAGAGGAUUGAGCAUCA` gave a bound/input enrichment of 0.0979 ratio.
The bound/input enrichment of `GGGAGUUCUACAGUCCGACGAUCAACUUCUCUGACUACAUCCGUGGAGGCAUCGUCAGUCAGGUCAAAGUACCGAAAAAGAUCCGUUUUAAAUCCUUGCCAGCAUCACUGGUAGAGCCUGACUUUGUGAUGACUGACUUUGCCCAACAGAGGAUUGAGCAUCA` is reported as 0.0927 ratio.

Block 4
Target: Interferon regulatory factor 5, full length, phosphomimetic (IRF5, Homo sapiens, UniProt Q13568-2, residues 1-514, S451D/S453D/S456D/S462D)
Method: protein-binding microarray
Molecule type: double-stranded DNA, one strand shown
Sample: in vitro
Tested at: 940 nM top
Setting: 60-bp whole probe
Added: salmon DNA 0.4 mg/ml
Reference: random background probes
Direction: higher = stronger binding
Constant ends, left off below: GCCTAGCAC … GTCTTGATTCGCTTGACGCTGCTG
`GATGATATCGGGTTTCGAGACGTGCTA`: “fitted relative affinity” 1.79 z-score.
`GACGATCTCAGTATCGCGACGTGCTAG`: “fitted relative affinity” 0.69 z-score.
`TTAGATATCGGGTTTCGTTTAGTGCTA` — result for “fitted relative affinity”: 3.61 z-score.
`GACGATAACAGTATCGAGACGTGCTAG` — result for “fitted relative affinity”: 1.74 z-score.
`TCTACTTCTCTTTTTGCTTTGTGCTAG` — result for “fitted relative affinity”: 1.79 z-score.
Under “fitted relative affinity”, `TTAGGTCTCGGTCTCGGATAGTGCTAG` is recorded as 4.99 z-score.
`GACGGACTGGGGTATCGGGAGGTGCTA` — result for “fitted relative affinity”: 0.232 z-score.
For `TTAGATTTAAGTATCGATTAGTGCTAG`, “fitted relative affinity” read 5.56 z-score.
`TGGAACCAGCGAACGAGCGGGTGCTAG` — result for “fitted relative affinity”: -0.522 z-score.
`CAGCACAGCTGACTACAAGCGTGCTAG`: “fitted relative affinity” -0.671 z-score.

Block 5
Target: Histone acetyltransferase KAT6A, winged helix 1, GST fusion (KAT6A, Homo sapiens, UniProt Q92794, residues 1-85)
Method: protein binding microarray
Molecule type: double-stranded DNA, one strand shown
Sample: in vitro
Tested at: not given
Setting: 8-mer, flanks averaged, mean of 2 arrays, mostly near background
Reference: not given
Direction: higher = stronger binding
Target sequence (chain): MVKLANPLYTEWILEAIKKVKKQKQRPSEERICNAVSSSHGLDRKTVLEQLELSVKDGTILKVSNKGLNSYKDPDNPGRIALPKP
The E-score of `GGTCTCGA` is reported as -0.0189.
The E-score of `GTGATAGA` is reported as -0.0222.
`ACCCTGAC` gave an E-score of -0.151.
For `CGACACCA`, the E-score was -0.0413.
`CCTTCGCA` gave an E-score of -0.0712.
The E-score of `CGTGAGAA` is reported as 0.0426.
`CACAAGGC` gave an E-score of 0.0112.
The E-score of `CCTCCCAA` is reported as -0.208.
The E-score of `ATAAAGGC` is reported as -0.153.
With `CTACTTTA` the E-score was -0.091.
The E-score of `AAGTATTC` is reported as -0.204.
With `CCTCCGGA` the E-score was -0.111.
With `CCCGAGGG` the E-score was -0.0305.
For `ACCACAGA`, the E-score was -0.279.
`CTTCTTTC` gave an E-score of -0.186.
`CGGCGTCC` has an E-score of 0.355.
`CAGCAAAC` gave an E-score of -0.151.
`AAACAGTA` gave an E-score of -0.055.
With `AAATGACG` the E-score was 0.1.
With `AACAGCCA` the E-score was -0.104.
`GCAGGGCC` gave an E-score of 0.0705.
`CAGCTTGA` gave an E-score of -0.148.
The E-score of `GTACCGAA` is reported as -0.00427.
For `CCTATTCG`, the E-score was -0.0568.
The E-score of `CGAGCATC` is reported as -0.16.

Block 6
Target: CCNA1, cyclin fold, Cln2 fusion (human)
Method: yeast growth competition, sequencing
Sample: yeast
Setting: weak parent motif
Reference: not given
Direction: higher = stronger binding
Starting sequence: PKN2 docking peptide (human); VSAVRKLDFSDTM; partner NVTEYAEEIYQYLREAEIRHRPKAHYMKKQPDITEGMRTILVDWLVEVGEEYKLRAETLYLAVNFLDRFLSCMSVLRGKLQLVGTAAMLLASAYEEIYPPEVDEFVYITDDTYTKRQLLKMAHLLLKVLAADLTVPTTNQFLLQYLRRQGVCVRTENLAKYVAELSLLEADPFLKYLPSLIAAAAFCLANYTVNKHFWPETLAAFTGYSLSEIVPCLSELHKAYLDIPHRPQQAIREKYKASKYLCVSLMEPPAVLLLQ
`R5L`: “normalised enrichment score” -0.0662.
`R5A`: “normalised enrichment score” 0.158.
`L7T`: “normalised enrichment score” 0.33.
`K6L` — result for “normalised enrichment score”: 0.0505.
Under “normalised enrichment score”, `T12V` is recorded as 0.223.
Under “normalised enrichment score”, `R5N` is recorded as -0.135.
`A3L`: “normalised enrichment score” 0.351.
For `K6C`, “normalised enrichment score” read 0.763.
Under “normalised enrichment score”, `F9T` is recorded as 0.14.
`K6Y` — result for “normalised enrichment score”: 0.48.
`D8A`: “normalised enrichment score” 0.63.
`R5M` — result for “normalised enrichment score”: -0.0829.
Under “normalised enrichment score”, `D8G` is recorded as 0.172.
Under “normalised enrichment score”, `S10I` is recorded as 0.23.
`L7P`: “normalised enrichment score” 0.0644.
`L7R` — result for “normalised enrichment score”: 0.0582.
`D8K`: “normalised enrichment score” 0.62.
Under “normalised enrichment score”, `F9S` is recorded as 0.439.
`L7Q`: “normalised enrichment score” 0.0431.
`S2F` — result for “normalised enrichment score”: 0.13.
For `A3F`, “normalised enrichment score” read 0.291.
`V4T` — result for “normalised enrichment score”: 0.814.

Some of these lines once more (block 2):
`P146W`: “relative binding score” -1.34%.
Under “relative binding score”, `A170G` is recorded as 2.45%.
Under “relative binding score”, `L169W` is recorded as 5.04%.
`Q19T`: “relative binding score” 47.4%.
`N85L`: “relative binding score” 67.7%.
`E147R` — result for “relative binding score”: 7.65%.
